Results from different studies.
Numbered parts are unrelated; each lists some results of a single study. Changes are numbered by the printed parent chain.

Series 1
Target: TAR DNA-binding protein 43, full length, His tag (TARDBP, Homo sapiens, UniProt Q13148, residues 1-414)
Method: RNA Bind-n-Seq
Molecule type: RNA
Matrix: in vitro
Concentration: 20 nM
Notes: 6-mer, flanks averaged, single round
With: 150 mM LiCl
Relative to: input library
Reading: higher = stronger binding
Strand	6-mer enrichment (R)
CCAAUC	0.863
UGAAUG	1.49
CAGGAC	0.92
UGCCCU	1.11
AUAGGC	0.91
GACGAA	0.866
UCGAUG	0.901
AGAUAU	0.874
AGACAA	0.811
ACUCAU	0.872
UAAUCC	0.873
CGAACG	0.806
UUGCAA	0.919
ACUAGA	0.817
ACGCAA	0.85
CGACGA	0.794
AUCAAA	0.805
GCCAAA	0.869
CUCUCG	0.832
UGAGGC	1.04
UCAAUC	0.828
GUAGCC	0.972
AAUGUU	1.11
CCGGGC	0.949
UUCCGC	0.898

Series 2
Target: Ras GTPase-activating protein-binding protein 1, full length (G3BP1, Homo sapiens, UniProt Q13283)
Sequence of UniProt Q13283 (whole entry, looked up): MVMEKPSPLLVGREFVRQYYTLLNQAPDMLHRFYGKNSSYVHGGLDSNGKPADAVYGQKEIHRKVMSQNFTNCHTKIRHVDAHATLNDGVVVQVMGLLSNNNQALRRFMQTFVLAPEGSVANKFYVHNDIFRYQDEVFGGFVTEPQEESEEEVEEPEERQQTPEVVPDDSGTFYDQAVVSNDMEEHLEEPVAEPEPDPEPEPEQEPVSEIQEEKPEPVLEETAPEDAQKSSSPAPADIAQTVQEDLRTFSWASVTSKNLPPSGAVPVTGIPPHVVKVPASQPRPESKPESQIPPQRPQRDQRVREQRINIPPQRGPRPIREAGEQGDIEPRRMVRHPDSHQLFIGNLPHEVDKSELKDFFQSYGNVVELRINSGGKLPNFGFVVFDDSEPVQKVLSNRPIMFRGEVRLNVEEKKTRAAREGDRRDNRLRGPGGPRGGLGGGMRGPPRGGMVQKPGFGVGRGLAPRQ
Method: RNA Bind-n-Seq
Molecule type: RNA
Matrix: in vitro
Concentration: 200 nM
Notes: whole 134-nt RNA, ends assumed
With: 150 mM LiCl
Relative to: input library
Reading: higher = stronger binding
All molecules: 7-deaza-guanosine replaces G
Shared flanks, not repeated: GGGAGUUCUACAGUCCGACGAUC … UGGAAUUCUCGGGUGUCAAGG
Strand	log2 enrichment
CCUCAAGUCCUGUGCUACACAUCGUAUGUACCGAAUCGGUUUGGUUUGGUGGAAAGUAUUAUGUUACGCCGUUCGGAUCUGCACUUCCAG	-0.488
GUCCUGUGCUACACAUCGUAUGUACCGAAUCAAACCCCCAAAUUUUUUUAAAUUUAAAAAAGUAUUAUGUUACGCCGUUCGGAUCUGCAC	0.504
CCUGUGCUACACAUCGUAUGUACCGAAUCGGGGAAAAAAAGGGGAAAGGGGUUUUUGGGGAAAGUAUUAUGUUACGCCGUUCGGAUCUGC	0.854
GCAGGAAGUAAAAACAACUGGAAAUGCUUCGGAUAGUGGCAGGGGUGGGGGUUGCUAAGGAAAGGGUGGGAUGGGAGUGGGUAAAGAGUU	-0.188
CAAGUCCUGUGCUACACAUCGUAUGUACCGAAUCAAACCCAAACCCAAAUUUAAAAAAGUAUUAUGUUACGCCGUUCGGAUCUGCACUUC	1.07
CACAGACAACACGCACCCACACAGACACAGAGGGAAGAAAUUGGGAUGGGGACAGGGUGCACAGCAGGGCGGGGUAGGACCCCAGCCCCU	-1.2
UGUGCUACACAUCGUAUGUACCGAAUCGGGGUUUUUUUGGGGUUUUUUUGGGGUUUUUGGGGAAAGUAUUAUGUUACGCCGUUCGGAUCU	1.83
GUCCUGUGCUACACAUCGUAUGUACCGAAUCGGGAAAAAGGGAAAAAGGGUUUUUGGGAAAGUAUUAUGUUACGCCGUUCGGAUCUGCAC	-1.2

Series 3
Target: Interferon regulatory factor 7, full length, phosphomimetic (IRF7, Homo sapiens, UniProt Q92985, residues 1-503, S471D/S472D/S475D/S476D/S477D/S483D/S484D/S487D)
Sequence of UniProt Q92985 (whole entry, unmodified, looked up): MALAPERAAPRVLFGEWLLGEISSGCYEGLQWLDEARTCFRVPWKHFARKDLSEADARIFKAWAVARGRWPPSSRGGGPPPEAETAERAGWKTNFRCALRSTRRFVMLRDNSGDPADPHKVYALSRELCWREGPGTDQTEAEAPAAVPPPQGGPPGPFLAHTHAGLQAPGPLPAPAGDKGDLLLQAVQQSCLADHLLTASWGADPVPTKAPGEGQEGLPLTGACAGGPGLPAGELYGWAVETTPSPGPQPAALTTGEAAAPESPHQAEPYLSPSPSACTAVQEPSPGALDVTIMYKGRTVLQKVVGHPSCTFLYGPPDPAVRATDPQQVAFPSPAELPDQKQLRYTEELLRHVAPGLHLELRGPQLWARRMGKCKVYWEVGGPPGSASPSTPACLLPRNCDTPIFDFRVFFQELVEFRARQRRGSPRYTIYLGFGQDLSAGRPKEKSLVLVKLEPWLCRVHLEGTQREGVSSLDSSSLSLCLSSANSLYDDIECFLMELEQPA
Method: protein-binding microarray
Molecule type: double-stranded DNA, one strand shown
Matrix: in vitro
Concentration: 2200 nM top
Notes: 60-bp whole probe
With: salmon DNA 0.4 mg/ml
Relative to: random background probes
Reading: higher = stronger binding
Shared flanks, not repeated: GCCTAGCAC … GTCTTGATTCGCTTGACGCTGCTG
Strand	fitted relative affinity
TTAGGACTGCTTATACTTTAGTGCTAG	-0.0525 z-score
CAGGGTTTCACTTTAAATTAGTGCTAG	2.76 z-score
TTAGAACTGGGGTTTCGAATAGTGCTA	0.71 z-score
TTAGGACTGGGACGGGGTTAGTGCTAG	-0.172 z-score
TCACCTCTTTTTTTGGTACTGTGCTAG	1.82 z-score
TTAGGTTTCAACACTGGGTTAGTGCTA	0.147 z-score
TTAGAACTTAGTATCGATTAGTGCTAG	-0.0542 z-score
TTAGAACTAGGGACTGGATTAGTGCTA	-0.952 z-score
TCAACTCGCCTTTTTTGACTGTGCTAG	1.3 z-score
AGAGCTATCACTATTCTAGGGTGCTAG	-0.224 z-score
CATTGCTTGTGTTTATTGTGGTGCTAG	1.47 z-score
GACGGTTTCGACACTAGGGACGTGCTA	2.39 z-score
TCATTTTTGCTTACGATGCAGTGCTAG	2.32 z-score
TCAGCTCTGCAGCTCAGACTGTGCTAG	0.072 z-score
TTAGGTATCGGACTGGGTTAGTGCTAG	0.0237 z-score
TTTTCATTGTTTTTCATCATGTGCTAG	2.5 z-score
GACGGACTGGACTATCGGGTCGTGCTA	-0.137 z-score
GACGTTTCCAGTTTCGAGACGTGCTAG	5.45 z-score
TTAGGTTTGGGTCTCGGTTAGTGCTAG	0.846 z-score
TCAACCATCCCTTATAAAACTGTGCTA	0.618 z-score
TCAAATTTGAGTCACTGACTGTGCTAG	-0.235 z-score
TCAGGTATCGGGTTTCGGTTAGTGCTA	4.31 z-score
CCTCCTTACTTTATGTAGGAGTGCTAG	1.28 z-score
GACGCACTGGGGTATCGAGACGTGCTA	-0.285 z-score

Series 4
Target: RING finger protein unkempt homolog, zinc fingers 1-6, GST-SBP tag (UNK, Homo sapiens, UniProt Q9C0B0, residues 30-357)
Method: RNA Bind-n-Seq
Molecule type: RNA
Matrix: in vitro
Concentration: not given
Notes: RNA with constant flanks, human-mouse chimeric sites, ends assumed
Relative to: input RNA pool
Reading: higher = stronger binding
Shared flanks, not repeated: GGGAGUUCUACAGUCCGACGAUC … CAACAGAGGAUUGAGCAUCA
Target sequence (chain): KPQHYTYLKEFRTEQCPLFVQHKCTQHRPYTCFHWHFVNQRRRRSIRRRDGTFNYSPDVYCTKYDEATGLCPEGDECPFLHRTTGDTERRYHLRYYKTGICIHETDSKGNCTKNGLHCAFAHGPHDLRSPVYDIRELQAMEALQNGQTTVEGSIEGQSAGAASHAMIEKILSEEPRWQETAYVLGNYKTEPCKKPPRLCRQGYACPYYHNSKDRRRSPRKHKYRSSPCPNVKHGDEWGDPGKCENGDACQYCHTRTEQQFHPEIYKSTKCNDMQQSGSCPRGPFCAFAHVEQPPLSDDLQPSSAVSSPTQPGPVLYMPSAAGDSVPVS
Strand	bound/input enrichment
UUCAAAGAAAAGGGCAGCUGUGUCAUUUCAUAAGUAACUCUGGGGGAGGGAAAUUCUGUUCUUUUGUUUAAUUUUCCCCCAAAUGAAGCCAAAGUGUUUUUUAAGGAAGGAAGAAUGAAU	0.15 ratio
GUUGCCAGGUUCCGGUGCCGUUGGGCUCGGUUCUCUCCUGAGCUACGUGUCUCUACGCUCUCAAUCCGCCAUCCAACGGCAGUCAUGCAGGUAAUGCAGUUUGUGGAGCCCAGCCGGCAG	0.072 ratio
UAACCACAUCAAGAUGGUUGGGAAGCUGAAGCAGAACUUACUCUUGGCAUGUCUGGUGAUUAGUUCUGUGACCGUGUUUUACCUGGGCCAGCAUGCCAUGGAGUGCCAUCACCGAAUAGA	0.305 ratio
GUACUGCAGCAGCAGGGAAAACUGCAGGAAGCUCUGAUGCAUUAUAAGGAGGCUAUUCGAAUUAGUCCUACCUUUGCUGAUGCUUAUUCUAAUAUGGGAAACACUCUAAAGGAGAUGCAG	0.2 ratio
GCCACCAGAUCCCAGAAACAUGACCCUUGCUGCCUACAAAGAGAAGAUGAAGGAGCUCCCGCUGGUGUCCUUGUUCUGCUCUUGCUUCUUGUCUGAUCCCCUGAAUAAGUCGUCCUACAA	0.226 ratio
GCUCUUGGCAAUGUAAUCAGCGCCUUGGGGGACAAGAGCAAGAGAGCCACACAUGUCCCUUACAGAGACUCUAAGCUGACAAGACUCUUGCAGGAUUCCCUUGGGGGUAACAGCCAAACC	0.0922 ratio
AAAGCCCAAGUAUUUUGAAAAAACUCGAACAGAUUUAACAAGGGUAGCCAGCUUGGAGUCUAGCAACUUGCCAAUGUGUUUACCAAUUUUGGGGGCUGUUUUUCUUUUCUUCUUUCAAAU	0.464 ratio
AACAGAUUGUCUUUAAGCAUUCCAAGCGAGAAUGCUGGGGUGAUCAUUGUUGCCCAUGUGCCUUCUGUAAUAGAUGGAAUGCUGUUCCAUGUUACAUUGAUGUUCUUCUCCAGAAUUGUU	0.14 ratio
UUCAAAGAAAAGGGCAGCUGUGUCAUUUCAUAAGUAACUCUGGGGGAUAAGUGGAAGAACUAGUUUGUUAAUUUUCCCCCAAAUGAAGCCAAAGUGUGUGUUGAAGAACUGAGAAAAAAU	0.505 ratio
GUUGCCAGCUUCCGGUUCCGUUGGGCUAGCAAGCUCCCUGAGCUACGUGUCUCUACGCUCUCAAUCCGCCAUCCAACGGCAGUCAUGCAGGUAAUGCAGUUUGUGGAGCCCAGCCGGCAG	0.0742 ratio
UCUGGUCACACUCGUGUAUAUGGUGUGUGCUUUGUGGACACUUCACUGGGCAAGUUUUUCAUCGGCCAGUUUUCGGAUGACCGCCACUGUUCCAGAUUUAGGACGCUAGUGGCUCACUAU	0.252 ratio

Series 5
Target: CCNF, cyclin fold, Cln2 fusion (human)
Method: yeast growth competition, sequencing
Matrix: yeast
Notes: strong parent motif
Relative to: not given
Reading: higher = stronger binding
Parent: RBL1 docking peptide (human); GSAKRRLFGEDPP; partner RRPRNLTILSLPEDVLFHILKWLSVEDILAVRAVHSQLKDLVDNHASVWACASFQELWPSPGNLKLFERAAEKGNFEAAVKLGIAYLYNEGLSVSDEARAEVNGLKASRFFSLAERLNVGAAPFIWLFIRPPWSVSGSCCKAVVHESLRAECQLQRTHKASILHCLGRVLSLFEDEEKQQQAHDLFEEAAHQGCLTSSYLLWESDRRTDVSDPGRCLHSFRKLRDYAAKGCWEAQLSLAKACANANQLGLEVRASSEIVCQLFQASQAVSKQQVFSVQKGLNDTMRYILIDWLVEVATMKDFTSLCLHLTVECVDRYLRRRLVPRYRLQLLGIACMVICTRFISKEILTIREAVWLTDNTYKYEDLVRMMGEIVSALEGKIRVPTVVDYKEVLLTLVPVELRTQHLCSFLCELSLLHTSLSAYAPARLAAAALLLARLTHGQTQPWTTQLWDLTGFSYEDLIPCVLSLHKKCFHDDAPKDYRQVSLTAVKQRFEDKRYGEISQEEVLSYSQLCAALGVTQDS
Substitution	normalised enrichment score
G1W	8.24
K4I	5.86
R6P	-0.0547
E10H	6.64
K4F	4.16
D11T	7.3
E10D	7.3
R6Y	2.91
K4G	2.98
D11Y	7.49
D11I	6.73
P12K	6.2
E10K	5.95
R6N	5.85
P13E	6.64
G9N	8.39
D11A	7.1
R5P	-0.317
K4A	6.46
P13S	6.65
E10G	5.96
P12I	6.87
S2C	7.93
F8N	0.938
K4M	3.97

For quick reference, copied from above (series 2):
Strand	log2 enrichment
CAAGUCCUGUGCUACACAUCGUAUGUACCGAAUCAAACCCAAACCCAAAUUUAAAAAAGUAUUAUGUUACGCCGUUCGGAUCUGCACUUC	1.07
CCUCAAGUCCUGUGCUACACAUCGUAUGUACCGAAUCGGUUUGGUUUGGUGGAAAGUAUUAUGUUACGCCGUUCGGAUCUGCACUUCCAG	-0.488
UGUGCUACACAUCGUAUGUACCGAAUCGGGGUUUUUUUGGGGUUUUUUUGGGGUUUUUGGGGAAAGUAUUAUGUUACGCCGUUCGGAUCU	1.83
GCAGGAAGUAAAAACAACUGGAAAUGCUUCGGAUAGUGGCAGGGGUGGGGGUUGCUAAGGAAAGGGUGGGAUGGGAGUGGGUAAAGAGUU	-0.188
CACAGACAACACGCACCCACACAGACACAGAGGGAAGAAAUUGGGAUGGGGACAGGGUGCACAGCAGGGCGGGGUAGGACCCCAGCCCCU	-1.2
GUCCUGUGCUACACAUCGUAUGUACCGAAUCAAACCCCCAAAUUUUUUUAAAUUUAAAAAAGUAUUAUGUUACGCCGUUCGGAUCUGCAC	0.504
CCUGUGCUACACAUCGUAUGUACCGAAUCGGGGAAAAAAAGGGGAAAGGGGUUUUUGGGGAAAGUAUUAUGUUACGCCGUUCGGAUCUGC	0.854
GUCCUGUGCUACACAUCGUAUGUACCGAAUCGGGAAAAAGGGAAAAAGGGUUUUUGGGAAAGUAUUAUGUUACGCCGUUCGGAUCUGCAC	-1.2
